Measured values gathered from unrelated publications.
Each line is one published result; not all experiments were run side by side. Several values in a cell are separate wells, animals, samples, runs or records. ± gives the spread as reported.

Nc1ncc(-c2ccc(C3CCCCC3)cc2)cn1
hepatic clearance (liver microsome stability; cynomolgus liver microsomes; 1 µM): 37 mL/min/kg

N#C[C@@H]1CC(F)(F)CN1C(=O)CNC(=O)c1ccnc2ccc(OCCCN3CCN(C(=O)CCc4ccc(O)c(CN5CCN6CC(=O)[O][Al-]([18F])([O]C(=O)C5)[O]c5ccc(CCC(=O)N7CCN(CCCOc8ccc9nccc(C(=O)NCC(=O)N%10CC(F)(F)C[C@H]%10C#N)c9c8)CC7)cc5C6)c4)CC3)cc12 (some centres unmarked)
internalized fraction (HT1080 cells expressing human FAP; 15 min, 37 °C): 74.8 ± 2.8%

Cc1ncsc1-c1ccc(C(C)NC(=O)C2CC(O)CN2C(=O)C(NC(=O)CCCCCCCCCCN2CCCC(Nc3ncc(Cl)c(Nc4ccccc4S(=O)(=O)C(C)C)n3)C2)C(C)(C)C)cc1 (centres unmarked)
log2 fold change (22Rv1; RNA-seq, refers to: SFT2D3 mRNA; concentration not given; relative to: DMSO): -1.26

CCNc1cc2c(cc1C)C1(c3cc(C)c(NCC)cc3O2)c2ccccc2C(=O)N1N=Cc1c[c-]c(-c2ccccn2)cc1.Cc1c(C)c(-c2ccc(-c3ccccc3)cc2)[c-](C)c1C.[Cl-].[Ir+3]
G0/G1 phase cells (A549; PI flow cytometry; 0.5 x IC50, 24 h): 53.69 ± 0.51%

CNS(=O)(=O)Nc1nccc(Cc2c(C)c3ccc(Oc4ncccc4F)cc3oc2=O)c1F
IC50 (HBL-100; cell viability; 7 days): > 1 µM

CC12CCCC(NS(=O)(=O)c3ccccc3)(C1)C1CC(C)(C)C1CC2 (centres unmarked)
inhibition (HT-29; cell growth or viability, CCK-8; 10 µM): < 50%

CCC(=CCc1c(O)cc2c(c1O)C(=O)CC(c1ccc(O)cc1OC)O2)CC (centres unmarked)
inhibition (HeLa; cell growth or viability, MTT; 1.563 µM, 48 h): 13.2%

CCN(C(=O)c1cc(F)ccc1Oc1nncnc1N1CCC2(C1)CN([C@H](CCCN(C)CCOC)C(C)C)C2)C(C)C
GI50 (22Rv1; cell growth or viability; 7 days): > 10 µM

N#Cc1cccc(/C=C/C(=O)c2ccc(O)cc2)c1
fold change (U-87 MG; refers to: TRIB3; concentration not given; relative to: untreated): 81.2

C=CC(=O)N1CCCC(n2c(=O)c3ncccc3n(Cc3ccc(Oc4ccccc4)cc3)c2=O)C1 (centres unmarked)
late apoptotic cells (OCI-LY19; annexin V/PI flow cytometry; 100 nM, 72 h): 13.2%

CC12CCCC(NC(=O)c3ccc(Br)cc3)(C1)C1CC(C)(C)C1CC2 (centres unmarked)
inhibition (HT-29; cell growth or viability, CCK-8; 300 µM): 66.3%

COc1cccc(CNC[C@@](O)(COCc2ccccc2)[C@@H]2CC[C@@H](C)C[C@H]2OCc2ccccc2)c1
inhibition (A2780; cell growth or viability, MTT; 10 µM, 72 h): 84.1%

CCN(CC)CC(=O)Nc1cccc(-n2cc(-c3ccc4ccc(-c5cn(-c6cccc(NC(=O)CN(CC)CC)c6)nn5)cc4c3)nn2)c1
fold regulation (RCC4; PCR array, refers to: CTGF; 5 x IC50, 2 h, normoxia; relative to: untreated): 1.03

O=C(CN1CCCCC1)Nc1ccc([C@H]2[C@@H](F)[C@@H](F)C[C@@H](F)[C@H]2F)cc1
hepatic clearance (cynomolgus liver microsomes; 1 µM): 16 mL/min/kg

CC(=O)N[C@@H](Cc1c[nH]c2ccccc12)C(=O)N[C@@H](CCC(=O)O)C(=O)N[C@@H](C)C(=O)N[C@@H](CC(=O)O)C(=O)COC(=O)c1c(C)cccc1C
LDH release (THP-1 cells expressing FKBP-caspase-4; pyroptosis, inhibitor; concentration not given, together with: B/B dimerizer): 24.1% and 23.8% and 28.3%

O=S(=O)(Nc1ccc(OC(F)(F)F)cc1)N1CCCC(C2c3ccccc3CCc3ccccc32)C1 (centres unmarked)
phosphorylation level (D425; immunoblot, refers to: Bad; concentration not given, 24 h): decreased

CN1CCCNC(=O)c2cccc(c2)C(=O)NCCCN(C)CCCNc2cccc3c2C(=O)c2cccc(c2C3=O)NCCC1
log2 fold change (SAS; RNA-Seq, refers to: CETN3 mRNA; 1 µM, 6 h; relative to: untreated cells): 1.17

O=c1cc(NCc2ccco2)c2ccccc2o1
calcium mobilisation signal (COS-7 (untransfected); 500 µM, unit not given; relative to: 3 µM ionomycin): 1.66 ± 1.06

CCC(=CCc1c(O)cc2c(c1O)C(=O)CC(c1ccc(O)cc1)O2)CC (centres unmarked)
G2 phase cells (HeLa; flow cytometry; 12 µM, 48 h): 11 ± 0.36%

CC(=O)N[C@@H](CO)C(=O)N[C@H](C(=O)N1CCC[C@H]1C(=O)N[C@@H](CC(=O)O)C(=O)COC(=O)c1c(C)cccc1C)C(C)(C)C
cell lysis (THP-1 cells, LPS-primed; pyroptosis, LDH release; 25 µM, LPS 1 µg/mL, 4 h, together with: nigericin 5 µM, 2 h): 44.6%
